Values quoted from earlier work, collected from citations in different studies.
Protocols differ between the studies behind these lines. ± marks the error that the study gave.
UniProt P06241, sequence (whole entry, unmodified, looked up): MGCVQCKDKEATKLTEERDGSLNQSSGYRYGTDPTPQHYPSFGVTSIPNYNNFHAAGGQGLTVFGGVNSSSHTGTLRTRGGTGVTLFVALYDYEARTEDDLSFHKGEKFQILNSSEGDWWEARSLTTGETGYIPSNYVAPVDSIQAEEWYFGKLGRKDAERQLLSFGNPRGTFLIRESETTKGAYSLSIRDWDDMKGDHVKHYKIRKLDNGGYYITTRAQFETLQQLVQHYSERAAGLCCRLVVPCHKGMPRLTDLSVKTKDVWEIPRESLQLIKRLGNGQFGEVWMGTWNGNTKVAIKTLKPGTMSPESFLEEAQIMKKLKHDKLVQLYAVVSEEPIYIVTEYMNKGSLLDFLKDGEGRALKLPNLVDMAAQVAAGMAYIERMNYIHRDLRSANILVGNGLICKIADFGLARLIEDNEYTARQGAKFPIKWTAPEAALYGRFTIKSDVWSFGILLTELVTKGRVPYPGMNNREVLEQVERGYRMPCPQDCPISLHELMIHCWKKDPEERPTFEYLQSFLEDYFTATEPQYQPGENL
UniProt P04191, sequence (whole entry, looked up): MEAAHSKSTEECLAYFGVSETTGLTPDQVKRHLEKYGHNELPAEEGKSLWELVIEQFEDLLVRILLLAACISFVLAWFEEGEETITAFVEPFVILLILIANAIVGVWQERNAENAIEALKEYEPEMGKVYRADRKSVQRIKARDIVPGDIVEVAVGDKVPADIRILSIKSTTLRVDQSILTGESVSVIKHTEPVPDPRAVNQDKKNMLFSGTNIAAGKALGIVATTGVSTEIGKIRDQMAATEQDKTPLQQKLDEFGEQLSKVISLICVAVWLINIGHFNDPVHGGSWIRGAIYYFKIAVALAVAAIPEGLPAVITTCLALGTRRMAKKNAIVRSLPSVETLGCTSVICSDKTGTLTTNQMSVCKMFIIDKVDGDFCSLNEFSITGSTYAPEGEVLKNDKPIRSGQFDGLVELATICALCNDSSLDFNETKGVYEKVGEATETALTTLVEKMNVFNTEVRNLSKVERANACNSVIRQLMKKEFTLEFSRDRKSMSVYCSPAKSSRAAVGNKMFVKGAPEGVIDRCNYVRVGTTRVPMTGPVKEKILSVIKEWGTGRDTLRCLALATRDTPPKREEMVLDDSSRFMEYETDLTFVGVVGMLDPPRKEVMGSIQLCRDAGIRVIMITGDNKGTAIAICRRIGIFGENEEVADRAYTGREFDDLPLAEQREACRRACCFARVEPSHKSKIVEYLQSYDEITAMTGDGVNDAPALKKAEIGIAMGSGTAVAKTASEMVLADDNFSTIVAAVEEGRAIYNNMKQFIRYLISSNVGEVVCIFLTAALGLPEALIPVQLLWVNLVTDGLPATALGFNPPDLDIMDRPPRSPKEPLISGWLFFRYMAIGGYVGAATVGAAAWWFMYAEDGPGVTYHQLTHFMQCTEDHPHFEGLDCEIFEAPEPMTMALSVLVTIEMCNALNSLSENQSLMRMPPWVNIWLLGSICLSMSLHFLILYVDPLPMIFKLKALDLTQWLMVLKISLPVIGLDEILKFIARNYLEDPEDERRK

Substance	target or system	test	test system	conditions	how to read	endpoint	result
ε-poly-L-lysine	–	–	bovine cartilage explants	–	–	time to full-thickness penetration	≤ 6 h
pegcetacoplan	–	–	rabbit	subcutaneous, 28 days, daily, GLP study	–	level, dose, no toxic effect	7 mg/kg/day
neurotensin	NTS1 Y347A	–	–	concentration not given	–	binding	no binding
Ac-APPIPPPRRKR-NH2 (N-acetyl, C-amide)	Tyrosine-protein kinase Fyn, SH3 domain (FYN, Homo sapiens, UniProt P06241)	binding	peptide	–	–	entropic term −TΔS	1.2 kcal/mol
SFLLRNPNDKYEPF	oocytes expressing thrombin receptor	maximal 45Ca2+ release	peptide	–	baseline: alpha-thrombin	concentration ratio	100 fold
phospholamban	Sarcoplasmic/endoplasmic reticulum calcium ATPase 1 (ATP2A1, Oryctolagus cuniculus, UniProt P04191)	calcium affinity	–	–	–	KCa	0.88 ± 0.03 µM
VTATNAFNCRKERGFCRFGGCPFPLIHIGKCGPA	Escherichia coli	–	peptide	–	–	MIC	64 µM

For quick reference, copied from above:
Substance	target or system	test	test system	conditions	how to read	endpoint	result
ε-poly-L-lysine	–	–	bovine cartilage explants	–	–	time to full-thickness penetration	≤ 6 h
